Experimental data of several laboratories.
Each line is one published result; not all experiments were run side by side.

`Cc1nc(-c2ccc(OCC(C)C)c(C#N)c2)sc1C(=O)O` gave a half-life of 369 min (human, plasma; oral, 40 mg once daily, with: verinurad 10 mg).
`N#Cc1ccc2c(c1)[C@H]1CCCN(C(=O)c3ccc4[nH]cnc4c3)[C@H]1C2` — result for “half-life at steady state”: 5.42 days (human, plasma; oral, 240 mg once daily).
For `Cc1cc(C)c(CNC(=O)c2cc(Cl)c3c(c2C)O[C@@](C)([C@H]2CC[C@H](N(C)C)CC2)O3)c(=O)[nH]1`, “half-life unbound drug” read 529 min (human, plasma; oral, 200 mg, cycle 1 day 1).
With `CN1CCC(COc2cnc(-c3cccc(Cn4nc(-c5cccc(C#N)c5)ccc4=O)c3)nc2)CC1` the half-life increase was about 27% (human; with: itraconazole; reference: compound alone).
The half-life of `COc1ncc(-c2nc3c(n2C(C)C)[C@H](c2ccc(Cl)cc2)N(c2cc(Cl)cn(C)c2=O)C3=O)c(OC)n1` is reported as 330 min (human, plasma; oral, 120 mg, C1D8, high-dose, median).
`Cc1cc(Nc2ncnc3ccc(NC4=NC(C)(CO)CO4)cc23)ccc1Oc1ccn2ncnc2c1` (stereo not drawn): “half-life (arithmetic mean)” 8.25 h (human, plasma; tucatinib, day 10, with: rifampin once daily).
`O=C(O)CCC(=O)O.[2H]C([2H])([2H])Oc1cc(C)c2[nH]ccc2c1CN1CC[C@@H](C2CC2)C[C@H]1c1ccc(C(=O)O)cc1` has a half-life of 2310 min (LC-MS/MS, mean; human, plasma; 600 mg, single dose, fasting).
`COC(=O)N[C@@H](C)CNc1nccc(-c2cn(C(C)C)nc2-c2cc(Cl)cc(NS(C)(=O)=O)c2F)n1`: “half-life geometric mean” 215 min (humans, plasma; oral, day 14, steady state, with: binimetinib).
`COc1cc(C(=O)NC2CCN(C)CC2)c(F)cc1Nc1ncc(C(F)(F)F)c(Oc2cccc3c2C(=O)N(C)C3)n1`: “half-life steady state” 1320 min (human, Japanese, plasma; oral, 200 mg once daily multiple dose, geometric mean).
`O=C(c1cc(Cc2n[nH]c(=O)c3ccccc23)ccc1F)N1CCN(C(=O)C2CC2)CC1` gave a half-life decrease of 28% (human; oral, with: carboplatin before).
The half-life of `CC(C)(Sc1ccncc1-c1ccc(C#N)c2ccccc12)C(=O)O` is reported as 876 min (human, plasma; oral, 10 mg once daily, with: febuxostat 20 mg).
For `CO[C@H]1C[C@@H]2CC[C@@H](C)[C@@](O)(O2)C(=O)C(=O)N2CCCC[C@H]2C(=O)O[C@H]([C@H](C)C[C@@H]2CC[C@@H](OC(=O)NCCOCCOCCOCCOCCOCCOCCOCCOCCC(=O)N3CCc4cc(Cn5nc(-c6ccc7oc(N)nc7c6)c6c(N)ncnc65)ccc4C3)[C@H](OC)C2)C[C@@H](O)[C@H](C)/C=C(\C)[C@@H](O)[C@@H](OC)C(=O)[C@H](C)C[C@H](C)/C=C/C=C/C=C/1C`, the half-life was 330 min (human, plasma; intravenous, 16 mg, cycle 1 day 1, arithmetic mean).

Excerpt of the above:
`Cc1cc(Nc2ncnc3ccc(NC4=NC(C)(CO)CO4)cc23)ccc1Oc1ccn2ncnc2c1` (stereo not drawn): “half-life (arithmetic mean)” 8.25 h (human, plasma; tucatinib, day 10, with: rifampin once daily).
`O=C(O)CCC(=O)O.[2H]C([2H])([2H])Oc1cc(C)c2[nH]ccc2c1CN1CC[C@@H](C2CC2)C[C@H]1c1ccc(C(=O)O)cc1` has a half-life of 2310 min (LC-MS/MS, mean; human, plasma; 600 mg, single dose, fasting).
